# Assay results pooled from the literature.
# Lines come from different studies, so protocols differ. ± gives the spread as reported.
Structure (SMILES),system,conditions,AUC
CC#C[C@]1(O)CC[C@H]2[C@@H]3CCC4=CC(=O)CCC4=C3[C@@H](c3ccc(N(C)C)cc3)C[C@@]21C,"male cynomolgus monkey, plasma","oral, 50 mg/kg single dose, with: ritonavir 30 mg/kg",2650 ng·h/mL
CCCCCCCCCCCCCCCCCCOP(=O)([O-])OC1CC[N+](C)(C)CC1,"rhesus monkey, male, plasma","oral, 7 mg/kg, single dose, median of 3",3150 µM·h
CC(C)=CCC[C@](C)(O[C@@H]1O[C@H](CO)[C@@H](O)[C@H](O)[C@H]1O)[C@H]1CC[C@]2(C)[C@@H]1[C@H](O)C[C@@H]1[C@@]3(C)CC[C@H](O[C@@H]4O[C@H](CO)[C@@H](O)[C@H](O)[C@H]4O[C@@H]4O[C@H](CO)[C@@H](O)[C@H](O)[C@H]4O)C(C)(C)[C@@H]3CC[C@]12C,"Sprague-Dawley rat, plasma","oral, 100 mg/kg of parent ginsenoside, 0 to 48 h, control group, no prebiotic",849 ± 141 ng·h/mL
CCCCOC(=O)CCCCCCCCCCCNC(=O)NC12CC3CC(CC(C3)C1)C2,"dog, plasma","oral, 0.3 mg/kg",not detected
OCCc1ccc(O)cc1,"C57BL/6J obese male mice, brain","oral, 200 mg/kg, 0 to 12 h",6.35 ± 0.68 nmol·min/g
Cn1ncnc1[C@H]1c2n[nH]c(=O)c3cc(F)cc(c23)N[C@@H]1c1ccc(F)cc1,"FVB mice, female, wild type, plasma","oral, 0.5 mg/kg, 0 to 4 h, no novobiocin pretreatment",702 ng·h/mL
CC(C)=CCC[C@](C)(O[C@@H]1O[C@H](CO)[C@@H](O)[C@H](O)[C@H]1O)[C@H]1CC[C@]2(C)[C@@H]1[C@H](O)C[C@@H]1[C@@]3(C)CC[C@H](O[C@@H]4O[C@H](CO)[C@@H](O)[C@H](O)[C@H]4O[C@@H]4O[C@H](CO)[C@@H](O)[C@H](O)[C@H]4O)C(C)(C)[C@@H]3CC[C@]12C,"Sprague-Dawley rat, plasma","oral, 2000 mg/kg ginseng extract, diet with NUTRIOSE 10% for 2 weeks",15200 ± 6090 ng·h/mL
CCCSc1nc(N[C@@H]2C[C@H]2c2ccc(F)c(F)c2)c2nnn([C@@H]3C[C@H](OCCO)[C@@H](O)[C@H]3O)c2n1,"female Wistar Han rats, plasma","oral, 60 mg/kg/day, week 52, carcinogenicity study",163 µM·h
Fc1ccc(Nc2n[nH]c3cccnc23)cc1Cl,"Sprague-Dawley rat, male, plasma","oral, 15 mg/kg, 1 times daily, day 4",200 µM·h
CN1CCN(c2ccc(Nc3ncc4cc(C#N)c(=O)n(C5CCCC5)c4n3)cc2)CC1,"NIH Swiss nude mice, intracerebral U87 tumour, plasma","intravenous, 25 mg/kg, with: gefitinib 200 mg/kg oral 1 h before",6350 ng·h/mL
CC(C)=CCC[C@](C)(O[C@@H]1O[C@H](CO[C@@H]2O[C@H](CO)[C@@H](O)[C@H](O)[C@H]2O)[C@@H](O)[C@H](O)[C@H]1O)[C@H]1CC[C@]2(C)[C@@H]1[C@H](O)C[C@@H]1[C@@]3(C)CC[C@H](O[C@@H]4O[C@H](CO)[C@@H](O)[C@H](O)[C@H]4O[C@@H]4O[C@H](CO)[C@@H](O)[C@H](O)[C@H]4O)C(C)(C)[C@@H]3CC[C@]12C,"Sprague Dawley rats, plasma","oral, 100 mg/kg, 0 to 48 h, control group sterile water",13700 ± 1080 ng·h/mL
Cc1cc(-c2cc(OC(=O)c3ccccc3)ccc2Cl)cc2nnc(Nc3ccc(OCCN4CCCC4)cc3)nc12,"C57BL/6 mice, retina","topical ocular, 1 %, 0 to 24 h",1.07 µM·h

# A few entries again:
Structure (SMILES),system,conditions,AUC
CC(C)=CCC[C@](C)(O[C@@H]1O[C@H](CO[C@@H]2O[C@H](CO)[C@@H](O)[C@H](O)[C@H]2O)[C@@H](O)[C@H](O)[C@H]1O)[C@H]1CC[C@]2(C)[C@@H]1[C@H](O)C[C@@H]1[C@@]3(C)CC[C@H](O[C@@H]4O[C@H](CO)[C@@H](O)[C@H](O)[C@H]4O[C@@H]4O[C@H](CO)[C@@H](O)[C@H](O)[C@H]4O)C(C)(C)[C@@H]3CC[C@]12C,"Sprague Dawley rats, plasma","oral, 100 mg/kg, 0 to 48 h, control group sterile water",13700 ± 1080 ng·h/mL
